# Measurements pooled from the literature.
# Numbered parts are unrelated; each lists some results of a single study. Positions count from the first letter of the parent shown.

# Block 1 — method: protein-binding microarray; molecule type: double-stranded DNA, one strand shown; medium: in vitro; tested at: not given; reading: higher = stronger binding
# Target: Myc proto-oncogene protein, bHLH-zipper, MAX partner unstated (MYC, Homo sapiens, UniProt P01106, residues 368-449)
# UniProt P01106, sequence (368-449, looked up): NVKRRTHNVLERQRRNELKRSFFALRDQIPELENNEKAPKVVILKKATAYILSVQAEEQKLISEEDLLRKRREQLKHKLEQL
# Setting: k-mer, scored over probes, only values ≥0.25
Strand,E-score
CATCGTGA,0.344
AGGGGAGG,0.34
CCACGTGG,0.499
AAAGCGTG,0.394
GCCTCGCC,0.298
ACGCCACA,0.293
CCATCTGC,0.3
ACCATGGG,0.288

# Block 2 — method: RNA Bind-n-Seq; molecule type: RNA; medium: in vitro; tested at: 365 nM; reference: no-protein control; reading: higher = stronger binding
# Target: RNA binding protein fox-1 homolog 2, RRM domain, GST-SBP tag (RBFOX2, Homo sapiens, UniProt O43251-10, residues 100-194)
# Setting: natural RNA segment, single round, ends assumed
# All sequences stand within: GGGAGUUCUACAGUCCGACGAUC … UGGAAUUCUCGGGUGCCAA
# Target sequence (chain): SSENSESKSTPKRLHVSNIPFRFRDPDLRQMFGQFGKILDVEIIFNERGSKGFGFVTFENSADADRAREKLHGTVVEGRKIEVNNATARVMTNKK
Strand,RBNS enrichment (R)
UAAUUUUUUACCAUUGCUACGUGUCCCACCUGCUGUUUACAAUAAAGGCAGAUGUGUGACAGGCCUGCCUCAUGUCCAUUCUUAGGGGAGGGAACUGGGGUUUCCUUGAC,0.347
UGAAAACGCCUCUUGCCUAUGUUAGUUACCCAUUCUCAACACUGGGCCAUGGCUGCAGAUGGAAUUGGAAAGUAAAAUAUUUGUGGCUGAGCCUCUUUAGUCUUCCCUGA,0.233
UUAAGGAUAUGAUUAAUAUUAUUAAUAUAAUAAUGAUGAUGAUGAUGAUGAAAACUAAGGAUUUUUCAAGAGAUCUUUCUUUCCAAAACAUUUCUGGACAGUACCUGAUU,0.456
AUGCUCCGGUGUGCCAAGCCCCAGCUCCGAUGUCUGCUUUGUGCAAUUUGCCUUUACCUCACCAAAAAUGUCUAGUUUAAUCUUCCUGCCGUGCCCGCUGACUGUCUGGG,0.832
UGUUAGUUGACAGUUGUGGGCUCAUGUAGUCUUUUUUGCCAUGAGUAGGAGCCCCUAGUGGGGCUGGUGGACAGCUUUGGAAGAGGUGUCCUGCUGCUGUUACCAGCCAU,0.518
GGAGGUUCUACUGUCUUGUCGUCCACUCUUGUCCCUCCCUUCUGUUAUCAAAGUUAAAGCGCCUCUUCACUCAAAAGGGCUUCAAAAUGUAAAUGGCUCUAGAGUUAGAG,0.445
AAAAUUACAAAUUAAAUUGUUAAUUUUUAUCAAUGUGAUUGUAAUUAAAAAUAUUUUGAUUUAAAUAACAAAAAUAAUACCAGAUUUUAAGCCGUGGAAAAUGUUCUUGA,1.71
AGUAGCCAAGGGAAGCCUCCAGAGAGCACAGAUGUGAACCCUCAGCAGCAGGCAUCACCCCCCAGUGGACUCGGGUGGGCCACCAGUAGCAUCUUCUAGAUGGCAGAGGG,0.272

# Block 3 — target: CCNB1, cyclin fold, Cln2 fusion (human); method: yeast growth competition, sequencing; medium: yeast; setting: weak parent motif; reference: not given; reading: higher = stronger binding
# Parent: SLBP docking peptide (human); ARYKRKLLINDFG
Variant,normalised enrichment score
D11C,0.441
R5I,0.734
I9S,1.51
A1E,-0.0535
F12T,-0.0979
K4F,0.796
N10Q,0.719
K6I,0.519

# Further values, each from its own experiment
Compound,host,medium,tested at,time,measurement,value
Cc1c(CC(=O)O)c2ccccc2n1C(=O)c1ccc(N2CCOCC2)nc1,human,microsomes or S9,2 µM,0.5 h,remaining compound,42.2%

# Some of these lines once more (block 1):
Strand,E-score
AGGGGAGG,0.34
CCACGTGG,0.499
AAAGCGTG,0.394
